Assay results of several laboratories.
Parts stem from different laboratories: compare values within a part only. “And” joins repeats or separate records; there may be more than shown.
UniProt Q9UM73, sequence (whole entry, unmodified, looked up): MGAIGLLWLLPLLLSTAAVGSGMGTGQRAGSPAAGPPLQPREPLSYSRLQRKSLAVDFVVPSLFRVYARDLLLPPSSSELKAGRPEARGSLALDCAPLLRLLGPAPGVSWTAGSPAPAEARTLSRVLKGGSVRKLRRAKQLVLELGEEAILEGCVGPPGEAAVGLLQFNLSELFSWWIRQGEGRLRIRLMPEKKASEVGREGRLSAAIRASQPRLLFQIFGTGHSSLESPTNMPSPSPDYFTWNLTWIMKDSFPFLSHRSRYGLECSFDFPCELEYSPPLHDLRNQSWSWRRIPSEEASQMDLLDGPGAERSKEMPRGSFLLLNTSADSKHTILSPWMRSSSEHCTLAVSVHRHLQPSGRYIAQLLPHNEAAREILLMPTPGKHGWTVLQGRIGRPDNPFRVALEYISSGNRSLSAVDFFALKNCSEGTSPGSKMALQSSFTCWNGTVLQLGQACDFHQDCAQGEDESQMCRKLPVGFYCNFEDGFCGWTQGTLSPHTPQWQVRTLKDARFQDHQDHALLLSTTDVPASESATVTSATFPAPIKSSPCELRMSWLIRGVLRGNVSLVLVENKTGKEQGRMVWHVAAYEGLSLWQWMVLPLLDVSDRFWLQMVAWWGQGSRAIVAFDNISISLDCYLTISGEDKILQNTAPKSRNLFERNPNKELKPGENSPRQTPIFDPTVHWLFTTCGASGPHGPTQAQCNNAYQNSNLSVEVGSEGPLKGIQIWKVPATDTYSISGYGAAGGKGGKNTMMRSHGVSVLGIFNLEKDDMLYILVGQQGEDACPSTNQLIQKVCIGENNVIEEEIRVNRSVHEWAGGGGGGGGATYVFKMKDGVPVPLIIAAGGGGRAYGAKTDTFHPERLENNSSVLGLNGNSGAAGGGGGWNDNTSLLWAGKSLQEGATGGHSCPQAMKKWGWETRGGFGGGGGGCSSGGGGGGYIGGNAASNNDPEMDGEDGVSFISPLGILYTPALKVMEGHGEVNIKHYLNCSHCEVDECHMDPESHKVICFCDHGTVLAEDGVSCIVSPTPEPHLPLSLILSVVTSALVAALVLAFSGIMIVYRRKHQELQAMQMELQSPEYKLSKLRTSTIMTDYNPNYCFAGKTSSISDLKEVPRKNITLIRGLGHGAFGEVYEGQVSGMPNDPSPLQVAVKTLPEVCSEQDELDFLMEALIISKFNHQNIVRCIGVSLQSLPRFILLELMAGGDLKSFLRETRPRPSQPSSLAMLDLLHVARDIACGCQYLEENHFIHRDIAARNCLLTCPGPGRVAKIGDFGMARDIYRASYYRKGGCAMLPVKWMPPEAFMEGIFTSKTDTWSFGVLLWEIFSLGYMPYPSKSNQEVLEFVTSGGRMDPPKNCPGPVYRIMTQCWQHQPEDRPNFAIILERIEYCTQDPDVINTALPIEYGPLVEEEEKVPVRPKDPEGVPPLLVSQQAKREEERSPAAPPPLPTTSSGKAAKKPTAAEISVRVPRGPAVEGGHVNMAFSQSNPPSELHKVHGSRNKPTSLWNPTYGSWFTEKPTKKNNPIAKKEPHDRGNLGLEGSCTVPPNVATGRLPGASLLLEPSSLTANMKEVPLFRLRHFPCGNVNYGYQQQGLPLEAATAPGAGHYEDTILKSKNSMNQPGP
UniProt P42336, sequence (whole entry, unmodified, looked up): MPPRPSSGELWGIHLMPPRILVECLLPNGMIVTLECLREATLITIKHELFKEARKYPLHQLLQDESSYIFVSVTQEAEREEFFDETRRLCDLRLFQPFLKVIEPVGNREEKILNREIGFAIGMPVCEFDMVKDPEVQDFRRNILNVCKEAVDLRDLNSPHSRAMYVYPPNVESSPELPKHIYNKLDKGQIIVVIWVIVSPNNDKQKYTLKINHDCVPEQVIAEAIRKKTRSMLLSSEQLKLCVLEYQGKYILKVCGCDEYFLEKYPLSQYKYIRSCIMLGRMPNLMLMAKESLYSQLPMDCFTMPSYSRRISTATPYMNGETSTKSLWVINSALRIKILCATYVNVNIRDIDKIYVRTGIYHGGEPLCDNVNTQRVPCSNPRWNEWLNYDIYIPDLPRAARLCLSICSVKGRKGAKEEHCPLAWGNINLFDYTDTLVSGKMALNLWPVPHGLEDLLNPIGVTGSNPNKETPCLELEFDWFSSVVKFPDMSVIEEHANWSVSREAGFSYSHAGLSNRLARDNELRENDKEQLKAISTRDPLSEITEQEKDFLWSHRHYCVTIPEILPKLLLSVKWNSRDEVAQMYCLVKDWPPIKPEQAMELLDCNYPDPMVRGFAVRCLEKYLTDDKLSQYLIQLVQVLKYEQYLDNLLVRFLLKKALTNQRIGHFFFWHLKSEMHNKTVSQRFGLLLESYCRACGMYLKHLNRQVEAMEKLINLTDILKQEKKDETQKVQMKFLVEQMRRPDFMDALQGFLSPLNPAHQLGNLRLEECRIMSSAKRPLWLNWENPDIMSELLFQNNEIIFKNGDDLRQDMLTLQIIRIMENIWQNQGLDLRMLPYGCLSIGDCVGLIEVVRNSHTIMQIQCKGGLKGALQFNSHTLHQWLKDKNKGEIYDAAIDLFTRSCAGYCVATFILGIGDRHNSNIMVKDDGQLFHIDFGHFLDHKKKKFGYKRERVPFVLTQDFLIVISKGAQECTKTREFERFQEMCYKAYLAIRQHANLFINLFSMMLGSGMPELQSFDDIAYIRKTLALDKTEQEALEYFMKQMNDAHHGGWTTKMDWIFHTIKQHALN
UniProt Q6XUX3, sequence (whole entry, looked up): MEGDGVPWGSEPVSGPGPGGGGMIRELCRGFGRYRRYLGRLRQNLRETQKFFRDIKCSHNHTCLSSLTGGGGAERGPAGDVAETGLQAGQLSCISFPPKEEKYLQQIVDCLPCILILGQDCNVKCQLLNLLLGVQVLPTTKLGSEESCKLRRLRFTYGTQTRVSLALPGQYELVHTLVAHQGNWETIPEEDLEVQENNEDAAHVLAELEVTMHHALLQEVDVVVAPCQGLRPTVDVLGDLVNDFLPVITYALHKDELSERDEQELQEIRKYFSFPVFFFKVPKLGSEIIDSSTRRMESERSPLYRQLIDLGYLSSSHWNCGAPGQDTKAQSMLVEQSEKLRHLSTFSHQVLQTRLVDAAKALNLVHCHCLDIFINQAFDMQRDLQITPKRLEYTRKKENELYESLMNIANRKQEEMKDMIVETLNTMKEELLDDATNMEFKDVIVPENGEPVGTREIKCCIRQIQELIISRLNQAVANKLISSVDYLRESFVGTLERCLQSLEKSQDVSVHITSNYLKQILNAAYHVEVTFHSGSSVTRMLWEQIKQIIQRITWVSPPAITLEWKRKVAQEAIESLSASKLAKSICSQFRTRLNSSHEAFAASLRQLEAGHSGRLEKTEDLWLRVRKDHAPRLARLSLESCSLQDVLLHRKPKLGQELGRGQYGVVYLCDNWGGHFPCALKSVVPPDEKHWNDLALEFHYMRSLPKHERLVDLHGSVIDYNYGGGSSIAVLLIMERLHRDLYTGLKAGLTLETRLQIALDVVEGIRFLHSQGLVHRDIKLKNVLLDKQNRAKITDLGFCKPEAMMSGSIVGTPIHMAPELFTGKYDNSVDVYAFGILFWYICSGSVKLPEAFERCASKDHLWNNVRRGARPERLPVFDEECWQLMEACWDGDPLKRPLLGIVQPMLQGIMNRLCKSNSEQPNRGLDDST
UniProt P09769, sequence (whole entry, looked up): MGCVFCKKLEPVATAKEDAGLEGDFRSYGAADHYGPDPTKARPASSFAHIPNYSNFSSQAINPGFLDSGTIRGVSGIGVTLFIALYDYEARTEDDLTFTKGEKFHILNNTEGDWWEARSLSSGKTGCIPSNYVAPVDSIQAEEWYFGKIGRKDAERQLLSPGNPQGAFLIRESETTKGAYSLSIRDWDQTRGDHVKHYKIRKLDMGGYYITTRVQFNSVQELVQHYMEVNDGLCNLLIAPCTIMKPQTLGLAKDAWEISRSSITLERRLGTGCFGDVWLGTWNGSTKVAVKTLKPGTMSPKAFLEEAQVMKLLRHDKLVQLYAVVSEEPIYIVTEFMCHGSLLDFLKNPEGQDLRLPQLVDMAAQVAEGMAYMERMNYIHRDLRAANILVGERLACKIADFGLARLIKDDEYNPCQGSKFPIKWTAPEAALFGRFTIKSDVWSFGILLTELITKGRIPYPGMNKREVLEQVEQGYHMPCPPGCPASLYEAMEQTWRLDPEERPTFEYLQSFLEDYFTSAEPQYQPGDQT
UniProt Q9UQB9, sequence (whole entry, looked up): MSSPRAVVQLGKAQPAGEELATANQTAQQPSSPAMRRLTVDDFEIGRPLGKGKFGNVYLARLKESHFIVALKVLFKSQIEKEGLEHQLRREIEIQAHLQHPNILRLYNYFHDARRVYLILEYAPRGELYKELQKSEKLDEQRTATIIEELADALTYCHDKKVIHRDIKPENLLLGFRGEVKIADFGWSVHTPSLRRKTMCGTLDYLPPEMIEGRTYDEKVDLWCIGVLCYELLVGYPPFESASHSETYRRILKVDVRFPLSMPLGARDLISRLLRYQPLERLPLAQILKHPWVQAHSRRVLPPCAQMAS

Block 1 — host: mouse; matrix: microsomes or S9; concentration: 2 µM; time: 0.5 h
Compound | remaining compound [%]
CCCc1nc(C#N)c(NCc2ccc3c(c2)OCO3)o1 | < 1
Cc1cc(C)c(S(=O)(=O)N2CCN(c3cc(C)nc(N4CCCC4)n3)CC2)c(C)c1 | 0.092
COCCOc1cc(=O)n2c(c1C(=O)NC1CCCCCC1)CCOCC2 | 68.9
OCCCN(CCO)c1ccc2cccc(Br)c2n1 | 1.87
CN(C)C[C@H]1CC[C@H](Nc2ncc3ccc(=O)n(C4CCCCCC4)c3n2)CC1 | 10
CCC(=O)c1ccc(CCCCCC(=O)O)s1 | 31.3
COc1ccc(-c2c(-c3ccccc3)nn(-c3ccc(Cl)cc3Cl)c2N(C)C)cc1OC | 25.4
O=C(CN(CCc1ccccc1)C(=O)CNS(=O)(=O)c1ccccc1)NCC1CCCO1 (centres unmarked) | 8.92
Cc1nc(=N)nc2ncc(C(=O)c3ccccc3O)cn12 | 3.66
Cc1nc(-c2nn(C)c(C)c2Cl)n(-c2ccc(F)cc2F)n1 | 10.8
CC(/C=C1\S/C(=N/c2ccc(O)cc2)N=C1O)=C\c1ccccc1 | 70.4

Block 2 — effect on: enzyme activity; action: inhibitor; concentration: 10 µM
Target: Calcium/calmodulin-dependent protein kinase type II subunit alpha (CAMK2A, Homo sapiens, UniProt Q9UQM7)
UniProt Q9UQM7, sequence (whole entry, looked up): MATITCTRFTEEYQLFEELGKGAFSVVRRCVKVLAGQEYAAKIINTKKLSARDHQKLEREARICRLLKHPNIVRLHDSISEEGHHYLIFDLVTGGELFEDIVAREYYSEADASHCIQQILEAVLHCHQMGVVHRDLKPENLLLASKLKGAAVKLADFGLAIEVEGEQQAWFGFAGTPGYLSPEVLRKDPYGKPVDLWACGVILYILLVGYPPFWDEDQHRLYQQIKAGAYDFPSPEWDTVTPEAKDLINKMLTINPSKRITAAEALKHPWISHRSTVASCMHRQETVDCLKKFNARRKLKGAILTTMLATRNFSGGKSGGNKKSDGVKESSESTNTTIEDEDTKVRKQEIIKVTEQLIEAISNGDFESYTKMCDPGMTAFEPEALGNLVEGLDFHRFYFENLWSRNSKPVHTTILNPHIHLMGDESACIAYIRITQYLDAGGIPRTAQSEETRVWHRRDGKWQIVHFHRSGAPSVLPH
SMILES | inhibition
Cc1cc(O)c(C)c2c1O[C@](C)(CCC[C@H](C)CCC[C@H](C)CCCC(C)C)CC2 | -0.04%
C/C(=C\CO)CCC[C@H](C)CCC[C@H](C)CCCC(C)C | -10%
N[C@@H](CCC(=O)NCC(=O)O)C(=O)O | 19%
COC(=O)c1ccc(O)c(OC)c1 | 31%
C/C=C(/C)C(=O)O[C@H]1[C@@H](OC(C)=O)c2c(ccc3ccc(=O)oc23)OC1(C)C | 0.01%
C[C@@H]1O[C@@H](OC[C@H]2O[C@@H](OCCc3ccc(O)c(O)c3)[C@H](O)[C@@H](OC(=O)/C=C/c3ccc(O)c(O)c3)[C@@H]2O)[C@H](O)[C@H](O)[C@H]1O | -0.15% and -0.17%
C[C@@H]1CC[C@@]2(OC1)O[C@H]1C[C@H]3[C@@H]4CC[C@@H]5C[C@@H](O)CC[C@]5(C)[C@H]4CC[C@]3(C)[C@H]1[C@@H]2C | -38%
O=C1CCCCC1=O | -65%
COc1ccc([C@H]2OC[C@H]3[C@@H]2CO[C@H]3c2cc(OC)c(OC)c(OC)c2)cc1OC | 10%
COc1cc(/C=C/c2ccccc2)oc(=O)c1 | 5%
OC[C@H]1O[C@H](OC[C@H]2O[C@H](OC[C@H]3O[C@H](OC[C@H]4OC(O)[C@H](O)[C@@H](O)[C@@H]4O)[C@H](O)[C@@H](O)[C@@H]3O)[C@H](O)[C@@H](O)[C@@H]2O)[C@H](O)[C@@H](O)[C@@H]1O (some centres unmarked) | 23%

Block 3 — effect on: enzyme activity; concentration: 5 µM; baseline: untreated control
SMILES: O=C(Nc1cnn(-c2csc(C(=O)NC3COC3)c2)c1)Nc1c(F)cccc1Cl
target | remaining activity [%]
DYRK1B (Homo sapiens, UniProt Q9Y463) | 82.2
CDC42BPA (Homo sapiens, UniProt Q5VT25) | 97.5
FGR (Homo sapiens, UniProt P09769) | 95.5
MAK (Homo sapiens, UniProt P20794) | 96.4
RPS6KA2 (Homo sapiens, UniProt Q15349) | 89.4
CAMK2D (Homo sapiens, UniProt Q13557) | 92.9
STK39 (Homo sapiens, UniProt Q9UEW8) | 74.8
PLK1 (Homo sapiens, UniProt P53350) | 92.8
FLT3 (Homo sapiens, UniProt P36888) | 98.7

Block 4 — effect on: cell-free assay; technique: competition with immobilised ligand; concentration: 1 µM
Structure (SMILES): CNCc1ccccc1-c1csc([C@H](C)Nc2nc(C)nc3cc(OC)c(OC)cc23)c1
target | remaining binding
Non-receptor tyrosine-protein kinase TYK2, JH2 (TYK2, Homo sapiens, UniProt P29597) | 76%
ACVR2B (Homo sapiens, UniProt Q13705) | 100%
ALK (Homo sapiens, UniProt Q9UM73, L1196M) | 93%
Ribosomal protein S6 kinase alpha-6, C-terminal kinase domain (RPS6KA6, Homo sapiens, UniProt Q9UK32) | 100%
PIK3CA (Homo sapiens, UniProt P42336, H1047Y) | 100%
HIPK4 (Homo sapiens, UniProt Q8NE63) | 91%
CDK8 (Homo sapiens, UniProt P49336) | 84%
DSTYK (Homo sapiens, UniProt Q6XUX3) | 78%
NEK10 (Homo sapiens, UniProt Q6ZWH5) | 78%
FLT1 (Homo sapiens, UniProt P17948) | 91%
Aurora kinase C (AURKC, Homo sapiens, UniProt Q9UQB9) | 94%
EIF2AK1 (Homo sapiens, UniProt Q9BQI3) | 100%
GRK4 (Homo sapiens, UniProt P32298) | 97%

Some of these lines once more (block 4):
target | remaining binding
Ribosomal protein S6 kinase alpha-6, C-terminal kinase domain (RPS6KA6, Homo sapiens, UniProt Q9UK32) | 100%
PIK3CA (Homo sapiens, UniProt P42336, H1047Y) | 100%
HIPK4 (Homo sapiens, UniProt Q8NE63) | 91%
